Published values from different studies.
Parts stem from different laboratories: compare values within a part only. Values joined by “and” are separate records of one study, mostly repeats; a detail may differ.

Study 1
SMILES: Cc1ccc(O)c(C)c1-c1cnc2[nH]c(-c3cnc(N4CCC5(CC4)CC(N4CCN(c6ccc(N[C@H]7CCC(=O)NC7=O)cc6F)CC4)CO5)nc3)cc2c1C#N (single isomer, unassigned)
PKMYT1: Membrane-associated tyrosine- and threonine-specific cdc2-inhibitory kinase (PKMYT1, Homo sapiens, UniProt Q99640)
Sequence of UniProt Q99640 (whole entry, looked up): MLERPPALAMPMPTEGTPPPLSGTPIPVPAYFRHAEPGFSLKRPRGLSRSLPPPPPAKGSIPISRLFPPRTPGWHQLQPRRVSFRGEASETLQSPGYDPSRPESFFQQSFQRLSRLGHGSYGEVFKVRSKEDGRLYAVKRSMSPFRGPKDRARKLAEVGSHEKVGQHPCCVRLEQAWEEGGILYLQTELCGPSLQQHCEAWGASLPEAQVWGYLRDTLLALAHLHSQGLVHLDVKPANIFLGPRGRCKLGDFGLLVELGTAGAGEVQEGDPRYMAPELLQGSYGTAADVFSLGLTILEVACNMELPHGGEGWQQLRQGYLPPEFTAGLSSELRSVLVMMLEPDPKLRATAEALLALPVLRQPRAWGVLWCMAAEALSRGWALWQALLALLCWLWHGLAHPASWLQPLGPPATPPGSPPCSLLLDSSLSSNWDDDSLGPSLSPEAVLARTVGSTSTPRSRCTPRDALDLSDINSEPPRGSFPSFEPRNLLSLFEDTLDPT
target or system | observed | mode | method | concentration | inhibition
MKN-1 | cell proliferation |  |  | 4.572 nM | -2.97% and 2.73% and -6.87%
PKMYT1 | binding |  | HTRF | 10000 nM | 99.5% and 101%
MDA-MB-436 | cell proliferation |  |  | 1.52 nM | 0.42% and -5.8% and -3.91%
NCI-H1568 | cell proliferation |  |  | 123.5 nM | 5.37% and 7.12%
PKMYT1 | enzyme activity | inhibitor |  | 1.111 µM | 100%

Study 2
Target: Cyclin-dependent kinase 12, with cyclin K (CDK12, Homo sapiens, UniProt Q9NYV4)
Sequence of UniProt Q9NYV4 (whole entry, looked up): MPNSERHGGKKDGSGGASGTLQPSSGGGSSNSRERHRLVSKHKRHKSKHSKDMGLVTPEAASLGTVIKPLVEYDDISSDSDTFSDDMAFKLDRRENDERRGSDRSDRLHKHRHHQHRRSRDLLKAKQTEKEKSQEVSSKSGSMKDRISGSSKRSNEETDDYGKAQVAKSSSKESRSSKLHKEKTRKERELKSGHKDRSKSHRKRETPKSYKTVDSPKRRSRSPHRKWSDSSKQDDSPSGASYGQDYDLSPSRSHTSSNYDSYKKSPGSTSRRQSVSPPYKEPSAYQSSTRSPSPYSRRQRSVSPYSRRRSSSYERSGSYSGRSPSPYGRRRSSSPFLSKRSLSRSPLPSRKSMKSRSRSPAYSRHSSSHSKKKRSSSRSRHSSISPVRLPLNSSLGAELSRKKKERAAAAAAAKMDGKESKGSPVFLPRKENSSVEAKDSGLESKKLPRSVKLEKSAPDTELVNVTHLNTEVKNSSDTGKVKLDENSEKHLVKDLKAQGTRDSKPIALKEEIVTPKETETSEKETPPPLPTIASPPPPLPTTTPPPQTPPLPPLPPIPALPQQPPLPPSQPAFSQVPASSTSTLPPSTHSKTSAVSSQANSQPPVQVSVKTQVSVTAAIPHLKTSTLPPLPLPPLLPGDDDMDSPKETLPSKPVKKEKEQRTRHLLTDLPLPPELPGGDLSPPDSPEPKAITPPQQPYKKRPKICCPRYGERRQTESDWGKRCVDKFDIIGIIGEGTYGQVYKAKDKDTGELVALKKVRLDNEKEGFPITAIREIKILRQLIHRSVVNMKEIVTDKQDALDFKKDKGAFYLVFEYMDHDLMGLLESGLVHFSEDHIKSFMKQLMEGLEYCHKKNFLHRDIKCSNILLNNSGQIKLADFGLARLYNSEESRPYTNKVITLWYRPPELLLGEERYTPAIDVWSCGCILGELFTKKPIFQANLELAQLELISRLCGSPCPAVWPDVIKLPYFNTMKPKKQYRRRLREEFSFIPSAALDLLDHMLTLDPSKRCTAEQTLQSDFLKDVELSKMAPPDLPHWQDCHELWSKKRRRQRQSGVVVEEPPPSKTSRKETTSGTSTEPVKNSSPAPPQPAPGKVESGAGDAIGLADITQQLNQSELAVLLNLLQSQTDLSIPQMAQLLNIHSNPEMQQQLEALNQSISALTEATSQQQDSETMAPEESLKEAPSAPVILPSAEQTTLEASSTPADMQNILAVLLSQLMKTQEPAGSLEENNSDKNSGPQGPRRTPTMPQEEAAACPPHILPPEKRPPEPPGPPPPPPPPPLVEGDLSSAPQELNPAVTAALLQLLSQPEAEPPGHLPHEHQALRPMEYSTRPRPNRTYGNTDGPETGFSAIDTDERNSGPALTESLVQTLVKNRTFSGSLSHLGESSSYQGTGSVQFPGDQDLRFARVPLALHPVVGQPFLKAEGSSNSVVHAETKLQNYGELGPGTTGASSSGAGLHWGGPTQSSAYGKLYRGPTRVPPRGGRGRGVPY
Observed: kinase activity
Mode: inhibitor
Method: ADP-Glo
Concentration: 0.0003 µM
Structure (SMILES) | inhibition
CCn1cnc2c(NCc3nc4cc(Cl)c(Cl)cc4[nH]3)nc(N3CCN(C(=O)[C@H](C)NC(C)=O)CC3)nc21 | -14.8%
CC(=O)N1CCN(c2nc(NCc3nc4cc(Cl)c(Cl)cc4[nH]3)c3ncn(C)c3n2)CC1 | -1.2%
CC(=O)N1CCN(c2nc(NCc3nc4cc(Cl)c(Cl)cc4[nH]3)c3ncn(C(C)C)c3n2)CC1 | 1.4%
CCn1cnc2c(NCc3nc4cc(Cl)c(Cl)cc4[nH]3)nc(N3CCN(C(=O)c4cccnc4)CC3)nc21 | -15.9%
CCn1cnc2c(NCc3nc4cc(Cl)c(Cl)cc4[nH]3)nc(N3CCC(NC(C)=O)CC3)nc21 | -3.6%
CC(=O)N1CCN(c2nc(NCc3nc4cc(Cl)c(Cl)cc4[nH]3)c3ncn(-c4cnn(C)c4)c3n2)CC1 | -7.5%
CCn1cnc2c(NCc3nc4cc(Cl)c(Cl)cc4[nH]3)nc(N3CCN(C(=O)c4ccccc4)CC3)nc21 | -9.3%
Cn1cc(-n2cnc3c(NCc4nc5cc(Cl)c(Cl)cc5[nH]4)nc(N4CCNCC4)nc32)cn1 | -5%
CCn1cnc2c(NCc3nc4cc(Cl)c(Cl)cc4[nH]3)nc(N3CCN(Cc4ccncc4)CC3)nc21 | -7.7%

Study 3
Compound: CCN1/C(=C/C=C2\CCCC(/C=C/C3=[N+](CC)c4ccccc4C3(C)C)=C2NCCCCCCCCN2CCC(Nc3nc4ccccc4n3Cc3ccc(F)cc3)CC2)C(C)(C)c2ccccc21
Cell line: U-87 MG
Concentration: concentration not given
Baseline: DMSO
item | log2 fold change
HMMR mRNA | -1.31
ZNF474 mRNA | 2.27
S100A3 mRNA | -2.14
ERCC6L mRNA | -2.86
ZXDB mRNA | 1.25
HDGF mRNA | -1.01
ITPRIPL1 mRNA | -1.23
NAA38 mRNA | -1.08
PITX1 mRNA | -1.11
CREBRF mRNA | 2
UHRF1 mRNA | -2.59

Study 4
SMILES: Cc1ncsc1-c1ccc(C(CO)NC(=O)C2CC(O)CN2C(=O)C(C(C)C)n2cc(-c3ccc(COc4c(-c5c(C)c(F)cc6[nH]ncc56)c(C5CC5)cc5c(N6CC7CC6CN7)nc(OC6CCOCC6)nc45)cc3)nn2)cc1 (stereo not shown)
host | dose | time | body weight
mouse, PK-59 xenograft | 3 mg/kg | day 7 | 24.9 g and 25.4 g and 25.2 g and 27.8 g and 24.4 g
mouse, PK-59 xenograft | 0.3 mg/kg | day 4 | 24.1 g and 24.6 g and 25.1 g
mouse, lung LXFA sample B PDX | 10 mg/kg twice weekly | day 11 | 26.6 g
mouse, PK-59 xenograft | 1 mg/kg | day 0 | 28.2 g and 24.1 g and 24.7 g and 23.6 g and 23.4 g
mouse, PK-59 xenograft | 0.3 mg/kg | day 7 | 25.1 g and 26.1 g
mouse, PK-59 xenograft | 0.3 mg/kg | day 0 | 23.6 g and 22.9 g
mouse, PK-59 xenograft | 10 mg/kg | day 7 | 24.7 g and 24.8 g and 26 g and 28.2 g

Study 5
SMILES: C[C@@H]1CN(c2ccc(-c3cc(C(=O)NCCOCCOCCOCCOCCNC(=O)/C=C/c4[nH]cc(C(=O)N[C@@H](CC(N)=O)c5ccc(F)c(Cl)c5)c4-c4ccc(Cl)cc4F)ccc3F)cc2NC(=O)c2c[nH]c(=O)cc2C(F)(F)F)C[C@H](C)N1C
Observed: thermal unfolding
Method: differential scanning fluorimetry
Concentration: 5.5 µM
Reading: higher = more unfolded
DCAF1: DDB1- and CUL4-associated factor 1 (DCAF1, Homo sapiens, UniProt Q9Y4B6)
Sequence of UniProt Q9Y4B6 (whole entry, looked up): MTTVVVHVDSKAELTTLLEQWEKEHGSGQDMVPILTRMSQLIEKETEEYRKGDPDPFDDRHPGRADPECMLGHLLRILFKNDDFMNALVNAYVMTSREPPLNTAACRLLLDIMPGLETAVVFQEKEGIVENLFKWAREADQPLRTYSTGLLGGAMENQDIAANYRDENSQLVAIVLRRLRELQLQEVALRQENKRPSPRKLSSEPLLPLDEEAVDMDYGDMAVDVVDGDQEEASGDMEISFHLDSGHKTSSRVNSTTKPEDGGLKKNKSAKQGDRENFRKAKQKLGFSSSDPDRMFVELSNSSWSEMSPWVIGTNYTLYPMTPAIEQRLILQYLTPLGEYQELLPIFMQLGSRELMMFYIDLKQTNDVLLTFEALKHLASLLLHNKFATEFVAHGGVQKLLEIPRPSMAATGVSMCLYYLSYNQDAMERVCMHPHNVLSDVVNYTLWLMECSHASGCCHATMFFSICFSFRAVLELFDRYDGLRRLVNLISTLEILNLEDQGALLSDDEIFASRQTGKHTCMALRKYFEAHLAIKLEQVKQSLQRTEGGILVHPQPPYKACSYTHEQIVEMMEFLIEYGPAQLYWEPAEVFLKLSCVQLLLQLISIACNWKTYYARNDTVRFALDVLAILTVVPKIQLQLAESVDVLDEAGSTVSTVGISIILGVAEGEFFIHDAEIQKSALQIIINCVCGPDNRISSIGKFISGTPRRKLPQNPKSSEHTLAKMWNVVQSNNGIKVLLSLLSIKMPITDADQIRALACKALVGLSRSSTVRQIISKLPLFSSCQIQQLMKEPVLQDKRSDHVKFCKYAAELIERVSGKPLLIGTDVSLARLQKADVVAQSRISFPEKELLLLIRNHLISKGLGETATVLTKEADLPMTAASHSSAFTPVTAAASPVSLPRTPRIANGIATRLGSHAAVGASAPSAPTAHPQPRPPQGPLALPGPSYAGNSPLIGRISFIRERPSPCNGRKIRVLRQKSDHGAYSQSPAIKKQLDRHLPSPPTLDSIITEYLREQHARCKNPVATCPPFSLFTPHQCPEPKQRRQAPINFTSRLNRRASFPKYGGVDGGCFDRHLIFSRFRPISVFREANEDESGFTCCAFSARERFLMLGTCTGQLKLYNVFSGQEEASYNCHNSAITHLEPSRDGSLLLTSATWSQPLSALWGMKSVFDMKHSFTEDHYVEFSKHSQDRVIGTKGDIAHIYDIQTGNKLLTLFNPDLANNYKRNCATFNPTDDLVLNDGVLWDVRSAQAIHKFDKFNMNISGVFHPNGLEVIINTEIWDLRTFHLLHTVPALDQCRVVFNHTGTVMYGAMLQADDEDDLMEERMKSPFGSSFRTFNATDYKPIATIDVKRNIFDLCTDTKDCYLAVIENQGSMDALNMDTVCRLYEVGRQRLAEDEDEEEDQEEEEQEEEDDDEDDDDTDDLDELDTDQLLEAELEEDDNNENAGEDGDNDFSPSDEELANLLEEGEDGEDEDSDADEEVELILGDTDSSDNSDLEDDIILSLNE
target | temperature | SYPRO Orange fluorescence
DCAF1 | 55.81 °C | 23400 a.u.
WDR5 (Homo sapiens, UniProt P61964) | 42 °C | 14800 a.u.
DCAF1 | 90.61 °C | 34400 a.u.
DCAF1 | 69.01 °C | 57000 a.u.
DCAF1 | 53.61 °C | 18800 a.u.
DCAF1 | 92.01 °C | 32800 a.u.
DCAF1 | 56.61 °C | 25800 a.u.
DCAF1 | 75.81 °C | 49100 a.u.

Study 6
Target: Myeloperoxidase (MPO, Homo sapiens, UniProt P05164)
Sequence of UniProt P05164 (whole entry, looked up): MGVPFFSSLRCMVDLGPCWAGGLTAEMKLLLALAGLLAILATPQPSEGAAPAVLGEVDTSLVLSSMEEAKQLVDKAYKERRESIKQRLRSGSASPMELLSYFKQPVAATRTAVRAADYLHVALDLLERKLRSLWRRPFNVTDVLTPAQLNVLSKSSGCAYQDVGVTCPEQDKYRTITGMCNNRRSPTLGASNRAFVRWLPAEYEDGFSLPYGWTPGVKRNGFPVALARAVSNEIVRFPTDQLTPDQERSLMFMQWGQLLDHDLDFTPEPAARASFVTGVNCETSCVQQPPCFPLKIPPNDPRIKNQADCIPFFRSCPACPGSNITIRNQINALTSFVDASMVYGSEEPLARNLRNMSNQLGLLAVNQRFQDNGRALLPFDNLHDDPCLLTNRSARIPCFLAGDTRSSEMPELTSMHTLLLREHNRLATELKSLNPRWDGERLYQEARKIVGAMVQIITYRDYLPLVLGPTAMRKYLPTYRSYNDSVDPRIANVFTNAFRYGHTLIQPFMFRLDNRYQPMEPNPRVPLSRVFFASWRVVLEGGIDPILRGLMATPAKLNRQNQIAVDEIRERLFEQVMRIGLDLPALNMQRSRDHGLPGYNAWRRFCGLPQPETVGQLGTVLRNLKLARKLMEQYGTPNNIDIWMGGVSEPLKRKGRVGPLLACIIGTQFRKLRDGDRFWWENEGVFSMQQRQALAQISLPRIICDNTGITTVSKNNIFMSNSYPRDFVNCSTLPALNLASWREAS
Observed: enzyme activity
Mode: inhibitor
Method: fluorescence
SMILES | IC50
NC/C(=C/F)COc1cccc(Cn2c(=S)[nH]c(=O)c3[nH]cnc32)c1 | 11 nM
Cc1cc2c([nH]1)c(=O)[nH]c(=S)n2Cc1cccc(OC/C(=C/F)CN)c1 | 1390 nM
Cc1c[nH]c2c(=O)[nH]c(=S)n(Cc3cc(F)cc(OC/C(=C/F)CN)c3)c12 | 4 nM

Further values, each from its own experiment
Structure (SMILES) | target or system | assay | system | setting | how to read | measurement | value
CCCN1C(=O)C(O)(C(=O)O)Oc2cc(F)ccc21 (stereo not shown) | Arabidopsis thaliana |  | Col-0 | 12.5 µg/mL, seed germination, single repetition |  | hypocotyl length | 1.88 cm and 1.85 cm and 1.76 cm and 1.87 cm and 1.9 cm
Cc1nc(C)c(C=[N+]([O-])C(C)(C)C)nc1C |  | Western blot | MPTP mouse model, substantia nigra nuclei | 10 mg/kg, unit not given | baseline: β-actin | Nrf2 protein level | 88 and 115 and 101
O=C(O)C1(O)Oc2cc(Cl)ccc2N(Cc2ccccc2)C1=O (stereo not shown) | Arabidopsis thaliana |  | Col-0 | 50 µg/mL, seed germination, repetition mean |  | hypocotyl length | 1.32 cm
CC(C)C[C@@H]1NC(=O)[C@@H](N(C)C(=O)[C@@H](NC(=O)[C@@H]2C[C@@H](F)CN2C(=O)C2(C(F)(F)F)CC(F)(F)C2)C2CC2)CCCCCCCN(C)C(=O)[C@H](Cc2cc(Cl)cnc2OC2CC2)N(C)C1=O |  |  | NSG mice, sample B SCLC PDX | oral, 100 mg/kg twice daily, day 15 |  | tumour volume | 234 mm3 and 309 mm3 and 206 mm3 and 310 mm3 and 300 mm3
CC(C)(C)c1ccc(Oc2ccc3c(c2)OC(O)(C(=O)O)C(=O)N3Cc2ccccc2)cc1 (stereo not shown) | Arabidopsis thaliana |  | Col-0 | 50 µg/mL, seed germination, single repetition |  | hypocotyl length | 1.65 cm and 1.61 cm and 1.62 cm and 1.64 cm
O=C(O)C1(O)Oc2cc(Br)ccc2N(Cc2ccccc2)C1=O (stereo not shown) | Arabidopsis thaliana |  | Col-0 | 3.125 µg/mL, seed germination, repetition mean |  | hypocotyl length | 2.11 cm

Excerpt of the above (further values, each from its own experiment):
Structure (SMILES) | target or system | assay | system | setting | how to read | measurement | value
CCCN1C(=O)C(O)(C(=O)O)Oc2cc(F)ccc21 (stereo not shown) | Arabidopsis thaliana |  | Col-0 | 12.5 µg/mL, seed germination, single repetition |  | hypocotyl length | 1.88 cm and 1.85 cm and 1.76 cm and 1.87 cm and 1.9 cm
Cc1nc(C)c(C=[N+]([O-])C(C)(C)C)nc1C |  | Western blot | MPTP mouse model, substantia nigra nuclei | 10 mg/kg, unit not given | baseline: β-actin | Nrf2 protein level | 88 and 115 and 101
O=C(O)C1(O)Oc2cc(Cl)ccc2N(Cc2ccccc2)C1=O (stereo not shown) | Arabidopsis thaliana |  | Col-0 | 50 µg/mL, seed germination, repetition mean |  | hypocotyl length | 1.32 cm
CC(C)C[C@@H]1NC(=O)[C@@H](N(C)C(=O)[C@@H](NC(=O)[C@@H]2C[C@@H](F)CN2C(=O)C2(C(F)(F)F)CC(F)(F)C2)C2CC2)CCCCCCCN(C)C(=O)[C@H](Cc2cc(Cl)cnc2OC2CC2)N(C)C1=O |  |  | NSG mice, sample B SCLC PDX | oral, 100 mg/kg twice daily, day 15 |  | tumour volume | 234 mm3 and 309 mm3 and 206 mm3 and 310 mm3 and 300 mm3
CC(C)(C)c1ccc(Oc2ccc3c(c2)OC(O)(C(=O)O)C(=O)N3Cc2ccccc2)cc1 (stereo not shown) | Arabidopsis thaliana |  | Col-0 | 50 µg/mL, seed germination, single repetition |  | hypocotyl length | 1.65 cm and 1.61 cm and 1.62 cm and 1.64 cm
O=C(O)C1(O)Oc2cc(Br)ccc2N(Cc2ccccc2)C1=O (stereo not shown) | Arabidopsis thaliana |  | Col-0 | 3.125 µg/mL, seed germination, repetition mean |  | hypocotyl length | 2.11 cm
